Assay results pooled from the literature.
Every numbered part comes from another study and shows a few of its results, in no order.

Study 1 — technique: protein binding microarray; form: double-stranded DNA, one strand shown; matrix: in vitro; concentration: not given; baseline: not given; reading: higher = stronger binding; quantity: E-score
Target: Histone acetyltransferase KAT6A, both winged helices, GST fusion (KAT6A, Homo sapiens, UniProt Q92794, residues 1-181)
Setting: 8-mer, flanks averaged, mean of 2 arrays, mostly near background
Target sequence (chain): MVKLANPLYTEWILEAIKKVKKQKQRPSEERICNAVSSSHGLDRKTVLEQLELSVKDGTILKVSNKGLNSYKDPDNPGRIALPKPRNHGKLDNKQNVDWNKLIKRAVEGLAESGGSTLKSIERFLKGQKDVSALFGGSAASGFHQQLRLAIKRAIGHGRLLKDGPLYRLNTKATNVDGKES
TAAGGACA: -0.00175
ACCGGGAC: 0.175
CTGATACA: -0.0527

Study 2 — technique: aptamer microarray, sandwich; form: DNA with 2'F-ANA; matrix: in vitro; concentration: 200 nM; added: Cy3 exosite-II aptamer, 400 nM; reading: higher = stronger binding; quantity: mean fluorescence intensity
Target: Prothrombin, mature alpha-thrombin (F2, Homo sapiens, UniProt P00734)
Setting: whole 15-mer aptamer, many near background
GGTTGGTGTGGTTGG (2'F-ANA at 2 4 7 8 9 10 12 13 15): 101 a.u.
GGTTGGTGTGGTTGG (2'F-ANA at 1 2 3 4 5 8 10 11 12 14): 82.4 a.u.
GGTTGGTGTGGTTGG (2'F-ANA at 1 10 11 12 14 15): 125 a.u.

Further values, each from its own experiment
GGGAGUUCUACAGUCCGACGAUCUCCUGUGCUACACAUCGUAUGUACCGAAUCGGGGAAAGGGGAAAAAAAGGGGAAAGGGGAAAGUAUUAUGUUACGCCGUUCGGAUCUGCAUGGAAUUCUCGGGUGUCAAGG (7-deaza-guanosine replaces G)  log2 enrichment (Fragile X messenger ribonucleoprotein 1, C-terminal low-complexity region (Fmr1, Mus musculus, UniProt P35922); RNA Bind-n-Seq; RNA, in vitro; 200 nM, whole 134-nt RNA, ends assumed, added: 150 mM LiCl; baseline: input library, higher = stronger binding): 0.427
PhoQ, residues 284 288 289 292 302 303 SLANKL  fold induction (PhoP, residues 12 14 15 18 19 NHFIF (Escherichia coli, UniProt P23836); Sort-seq, measured: YFP reporter; E. coli; PhoQ-PhoP variant library, added: 10 µM Mg2+; baseline: high Mg2+ state, higher = stronger signaling): 1.71

For quick reference, copied from above (study 1):
CTGATACA: -0.0527
